Assay results gathered from unrelated publications.
Each numbered part is a random draw from the data of one study; scales do not carry over between parts.

Set 1
Target: Centromere-binding protein 1, full length, N-terminal tag (CBF1, Saccharomyces cerevisiae, UniProt P17106, residues 1-351)
Sequence of UniProt P17106 (whole entry, looked up): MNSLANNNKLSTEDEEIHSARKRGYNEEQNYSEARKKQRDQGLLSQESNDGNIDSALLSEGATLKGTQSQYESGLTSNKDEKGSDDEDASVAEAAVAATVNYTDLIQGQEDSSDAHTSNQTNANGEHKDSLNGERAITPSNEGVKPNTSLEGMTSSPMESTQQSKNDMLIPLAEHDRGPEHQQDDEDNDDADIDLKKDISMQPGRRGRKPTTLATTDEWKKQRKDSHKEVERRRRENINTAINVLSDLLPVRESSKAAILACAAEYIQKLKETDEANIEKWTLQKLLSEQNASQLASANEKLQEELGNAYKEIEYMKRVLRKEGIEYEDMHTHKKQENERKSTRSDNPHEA
Method: protein-binding microarray
Form: double-stranded DNA, one strand shown
Medium: in vitro
Concentration: 0.8 µM
Notes: whole 60-bp probe, no competitor
Direction: higher = stronger binding
Sequence | fluorescence intensity [a.u.]
CTACGGTCTTGGCCGCACGTAAAACCTGTGTGGTTCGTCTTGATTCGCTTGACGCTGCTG | 493
CTAGAACTTACAAGAAATATCACGTTGGCGCGCTTCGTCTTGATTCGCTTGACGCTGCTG | 965
GAAATTTTTGTATAATTGGTGGTGTAACGTGGATAGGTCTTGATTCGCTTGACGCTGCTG | 585
GAATCTCTAGTGTCCCACATGAATTGTATTAACTAGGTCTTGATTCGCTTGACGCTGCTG | 512
TGTACGAAGCTATAGCACGTCAATATAGTAGTTAGGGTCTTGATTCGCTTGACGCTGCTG | 490
GAAAGTTCTGTATGGTGCGTCACCTTCTTTTTTTAGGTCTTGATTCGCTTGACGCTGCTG | 501
CTACAAGCCACTTCTCATGACATATATTGGTAATTCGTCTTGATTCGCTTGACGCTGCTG | 546
CTATGACCACAGCCGAAGGTGACGAAGGGATGGTTCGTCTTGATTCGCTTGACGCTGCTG | 499
GAATTATGCTCAAGTCACGAAGCTGTTGCCAAATAGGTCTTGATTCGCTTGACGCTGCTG | 598
CTAAAGCGTATTTGTGACCAGTGTACTTCAAGGTTCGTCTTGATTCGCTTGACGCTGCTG | 542
TGTACGAAGCTATACAGCGTGAATATAGTAGTTAGGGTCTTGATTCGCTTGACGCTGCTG | 533
CCTAACTACTATAGTGACAAAGCATAGCTTCGTACAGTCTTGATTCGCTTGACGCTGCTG | 465
GAAAGCTATTTAAACCCCATCACGTTGATTGTCTAGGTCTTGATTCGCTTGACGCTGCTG | 1050
CTACTGCTGCAGAATTACGTGACATTTCTCAGTTTCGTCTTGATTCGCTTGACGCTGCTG | 600
TGTACGAAGCTATTGCAGGTGTTTATAGTAGTTAGGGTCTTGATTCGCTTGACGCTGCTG | 553
CTAACGAATGAAAAGCACGTGAACTAACAAACTTTCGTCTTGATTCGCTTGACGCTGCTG | 4840
GAATCGAAAGCAATGCTGATGATGTACCACAAATAGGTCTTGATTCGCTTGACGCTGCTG | 513
CTATACTTCGATAAGCACGAGGAAATGTAATATTTCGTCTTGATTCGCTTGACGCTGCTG | 639
GAATTTGGACAATTACACGAGATCTTTATTAAATAGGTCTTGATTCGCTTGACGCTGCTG | 694
CTAACCTTTCAGCCTCACCTGCAGTATTTCTTCTTCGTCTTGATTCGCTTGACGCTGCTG | 552
GAAAAACTTTTCTTAATGATGATGGCGTCTGTCTAGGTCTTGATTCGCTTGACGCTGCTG | 523
GAACGTGGAGCGCTTCACGTGAAAAGAGTGGCCTAGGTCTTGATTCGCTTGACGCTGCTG | 2290
CTAGTAATGAACCACCACCAGTTGTAAGCAGTCTTCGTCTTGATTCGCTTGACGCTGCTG | 563
GAAAAGGGACGTCGTAATCACGGTTACTAAGTATAGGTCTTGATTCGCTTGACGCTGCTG | 535

Set 2
Target: RING finger protein unkempt homolog, zinc fingers 1-6, GST-SBP tag (UNK, Homo sapiens, UniProt Q9C0B0, residues 30-357)
Sequence of UniProt Q9C0B0 (30-357, looked up): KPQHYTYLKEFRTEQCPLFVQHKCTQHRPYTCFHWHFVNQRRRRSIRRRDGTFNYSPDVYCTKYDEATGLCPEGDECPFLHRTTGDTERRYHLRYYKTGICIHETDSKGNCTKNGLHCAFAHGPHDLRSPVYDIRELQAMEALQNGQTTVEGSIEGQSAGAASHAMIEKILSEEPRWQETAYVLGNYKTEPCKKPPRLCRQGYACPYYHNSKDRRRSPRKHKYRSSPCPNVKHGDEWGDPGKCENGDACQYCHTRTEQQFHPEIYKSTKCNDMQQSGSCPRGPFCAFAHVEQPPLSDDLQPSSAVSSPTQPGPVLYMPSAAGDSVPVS
Method: RNA Bind-n-Seq
Form: RNA
Medium: in vitro
Concentration: not given
Notes: RNA with constant flanks, ends assumed
Reference: input RNA pool
Direction: higher = stronger binding
Sequence | bound/input enrichment
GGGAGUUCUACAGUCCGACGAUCCUGGGAACCUCCCAGAGGUCCAGCCCAUCUCGGAGCAUCCCGGAGGAAAUCUGCAGAGGGUCCGGAGUGGGUGACAAGAGCCUGAUCUCUUCCUGUUUUGUACAUAGAUUUAUUUUUCAGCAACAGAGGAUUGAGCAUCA | 0.75 ratio
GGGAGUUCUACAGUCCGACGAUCAAUAGAGGAUUAUAUUCAAUUGAAGUGCUGGAGCUCUUCUGAUAUUAUCAAUUCUCCUUCACCGACAUUUUAUAAAGCUCUUUUAUGUGAACUCUUGCUUCAUCCAGGCAAGAACGGUGUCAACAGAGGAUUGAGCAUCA | 1.2 ratio
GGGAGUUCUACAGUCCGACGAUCCUCACCUAUGAAGUCAUUGGAUUUGCCAAUGUCGUAGUCCCAGACUGUGACCUCCAGGGUCUCCGUGGCCAGAGUGGAGAGUUCAAUCUCAUAGAAGAAUUCCUGAGAACAAAGGCAGGCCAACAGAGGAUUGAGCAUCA | 0.254 ratio
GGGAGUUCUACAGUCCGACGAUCACUUGACUUCAGGCAGCAGAUUGUCUAGAAGCCUAAGGACAGCAAUUUCUCUGACAAGACAAAGCCGAUAUUUUAUACCAGGGGUUGGCAAACUACUGCCCACGGGCCGAAUUUGGCCCACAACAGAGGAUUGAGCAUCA | 0.259 ratio
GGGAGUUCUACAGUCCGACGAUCUAAGCAUAUUAACAUUUUUAAGCAAAAGAUACGUUAACAGUGACCUUUGGUUAUCCACAGCCGCAAGAGUAAAGCACAGAUCAUUGAAAUCCAUAGAUAAUCAGUGAAUCAACUUUCCUACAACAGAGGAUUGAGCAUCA | 0.172 ratio
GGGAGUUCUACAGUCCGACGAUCAGAGAUUUUAUUUGCAAGUUAAUCAAAUAUUGGACAUUUAGAUUUUUUCUACUUUCUGGCCCGUAUAAGUAAUGCUGCUAGAACAUUUAUGUAAUUUUUGUAUGUGGUCAUGGUUUCUUUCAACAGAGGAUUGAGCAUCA | 6.79 ratio
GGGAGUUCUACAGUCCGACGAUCCUAGUGCCAUGGGAACCAGGUCUGAAAAAGUAGAGAGAAGUGAAAGUAGAGUCUGGGAAGCCGCUGCCUAUAACUGAGACUAGACGGAAAAGGAAUACUCGUGUAUUUUAAGAUAUGAAUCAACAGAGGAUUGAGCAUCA | 1.13 ratio
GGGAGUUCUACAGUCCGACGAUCGCUUACAAAGCUGCUAGUGACAUUGCGAUGACAGAACUUCCUCCAACGCACCCCAUUCGUUCCGGUCUUGCUCUCAACUUUUCCGUAUUCUACUAUGAAAUUCUUAAUUCCCCCGACCGUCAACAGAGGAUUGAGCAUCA | 0.523 ratio
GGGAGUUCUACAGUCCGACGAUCUGGGUGACAGAGCGAGACUUAUAGAUAGAUAGAUAGAUAGAUGGAUAGAUAGAUAGACCGACCGACCGAUAGAUAAACGGAAUUGGAGCCAUUUUGCUUUAAGUGAAUGGCAGUCCCUUGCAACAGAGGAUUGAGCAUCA | 152 ratio
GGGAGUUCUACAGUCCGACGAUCAAUGGAGUGACUUUGCGUAGGCUUGCGGGUGUCCAGGCCGCCUAGGCUGGAGAGAAAGCCAGCCGAAAUAGAUAUGAUUGUAGGAAAAGACCGGGAAGGUUUCUUUACCAACGGUUUGACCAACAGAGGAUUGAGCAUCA | 0.674 ratio
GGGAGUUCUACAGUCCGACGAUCGGAUUGACCUAGUCUUGCUCCGACCUCAUAAACAAUCCACUCUGUAUUGUGCCCUGUCAAACCCGUGUGUGUGGUGUUAAUGAUGCUGGGAUUUUAUUUAUUGUAAAGCAAUGAGUCUGGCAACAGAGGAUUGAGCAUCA | 0.22 ratio

Set 3
Target: Sal-like protein 4, full length isoform A (SALL4, Homo sapiens, UniProt Q9UJQ4, residues 1-1053)
Sequence of UniProt Q9UJQ4 (whole entry, looked up): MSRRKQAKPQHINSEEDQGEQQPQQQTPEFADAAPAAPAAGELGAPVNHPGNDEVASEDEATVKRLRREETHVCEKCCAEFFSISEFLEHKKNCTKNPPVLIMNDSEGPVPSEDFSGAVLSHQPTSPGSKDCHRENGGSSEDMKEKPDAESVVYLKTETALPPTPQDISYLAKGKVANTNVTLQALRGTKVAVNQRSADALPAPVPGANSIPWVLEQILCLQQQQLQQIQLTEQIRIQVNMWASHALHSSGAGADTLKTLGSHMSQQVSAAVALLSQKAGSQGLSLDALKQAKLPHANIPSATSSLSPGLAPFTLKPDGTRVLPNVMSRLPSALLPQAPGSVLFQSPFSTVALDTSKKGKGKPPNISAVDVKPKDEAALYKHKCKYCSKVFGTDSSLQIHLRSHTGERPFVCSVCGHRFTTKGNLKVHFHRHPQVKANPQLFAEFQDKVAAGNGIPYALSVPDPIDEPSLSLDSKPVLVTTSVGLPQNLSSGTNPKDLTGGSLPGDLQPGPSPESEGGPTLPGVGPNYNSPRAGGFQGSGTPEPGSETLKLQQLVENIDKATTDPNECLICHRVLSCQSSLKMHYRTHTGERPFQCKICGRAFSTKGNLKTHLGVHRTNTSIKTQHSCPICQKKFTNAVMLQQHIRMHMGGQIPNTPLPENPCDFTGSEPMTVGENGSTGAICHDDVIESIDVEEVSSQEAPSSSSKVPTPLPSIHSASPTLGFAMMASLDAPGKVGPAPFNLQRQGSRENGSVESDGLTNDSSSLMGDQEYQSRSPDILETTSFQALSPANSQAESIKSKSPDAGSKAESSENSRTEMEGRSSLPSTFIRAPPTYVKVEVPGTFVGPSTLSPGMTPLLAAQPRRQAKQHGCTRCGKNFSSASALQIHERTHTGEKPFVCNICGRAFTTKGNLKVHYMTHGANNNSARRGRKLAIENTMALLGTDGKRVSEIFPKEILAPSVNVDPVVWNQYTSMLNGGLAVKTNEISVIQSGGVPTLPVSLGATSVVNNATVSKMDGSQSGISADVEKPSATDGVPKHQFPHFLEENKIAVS
Method: universal PBM
Form: double-stranded DNA, one strand shown
Medium: in vitro
Concentration: 600 nM
Notes: 8-mer, flanks averaged, mean of replicates
Direction: higher = stronger binding
Sequence | E-score
CCACCCAG | -0.329
ATTTTATG | 0.314
ACGGCCGT | -0.309
AACGCCGA | -0.0921
GCATCCCC | -0.191
CCGGAGAC | -0.23
ACACAAAC | 0.114
CGCAGTCC | -0.201
CCTAGCAC | -0.16
CGCCAAGC | -0.238
ACACCACC | -0.165
ATAACATC | 0.27
GTTGTTTA | 0.241
AAGACCCC | -0.185
CTATGAGC | 0.0616
TCAGAGCA | -0.145
GGGGCAGA | -0.132
GACCGTGC | -0.284
CGCGCGAC | -0.294
ACCTAGCG | -0.0897
CGGTGGAG | -0.256
CGACCAAA | -0.0602
GGACCGAA | 0.0298
CTTCTTCA | 0.141
GGTTACCA | -0.059

Set 4
Target: Histone acetyltransferase KAT6A, winged helix 2, GST fusion (KAT6A, Homo sapiens, UniProt Q92794, residues 85-181)
Method: protein binding microarray
Form: double-stranded DNA, one strand shown
Medium: in vitro
Concentration: not given
Notes: 8-mer, flanks averaged, mean of 2 arrays, mostly near background
Reference: not given
Direction: higher = stronger binding
Target sequence (chain): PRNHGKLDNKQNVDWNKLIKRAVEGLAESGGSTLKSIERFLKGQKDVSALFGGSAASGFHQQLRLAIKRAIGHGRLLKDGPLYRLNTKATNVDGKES
Sequence | E-score
ACCATTGG | 0.0244
ATACGGGG | -0.0704
CGACCAAC | -0.0338
AGGCATAC | -0.0393
CGGTAACA | -0.0692
CACTGCGC | 0.0618
ACGCCCTA | 0.0205
CAATTTAC | -0.0449
ACCAAGGG | 0.0723
AATCATCC | 0.0168
ATCATGGA | -0.0146
TCTCGAAA | 0.186
CAAGGGTC | -0.127
ATCGGTTA | 0.0314
TCCCAACA | 0.0858
AAATTCCA | 0.0677
GTATGCTA | 0.00547
CGAATACG | 0.00499
AGCAACAT | 0.0652
CCTTACTA | -0.0171
CCCGGCGA | 0.0362
GATCTGAC | 0.0472
TGATACCA | 0.0763
AGTAAGGA | -0.114
GAACAGGA | 0.0306
